{"data": "Results gathered from unrelated publications", "note": "Every numbered part comes from another study and shows a few of its results, in no order. Values joined by “and” are separate records of one study, mostly repeats; a detail may differ."}
{"data": "Series 1", "SMILES": "C[C@@H]1CN(c2ccc(-c3cc(C(=O)NCCOCCOCCOCCOCCNC(=O)Cn4cc(-c5[nH]cc(C(=O)N[C@@H](CC(N)=O)c6ccc(F)c(Cl)c6)c5-c5ccc(Cl)cc5F)cn4)ccc3F)cc2NC(=O)c2c[nH]c(=O)cc2C(F)(F)F)C[C@H](C)N1C", "observed": "thermal unfolding", "technique": "differential scanning fluorimetry", "tested at": "5.5 µM", "direction": "higher = more unfolded", "WDR5": "WD repeat-containing protein 5 (WDR5, Homo sapiens, UniProt P61964)", "DCAF1": "DDB1- and CUL4-associated factor 1 (DCAF1, Homo sapiens, UniProt Q9Y4B6)", "chain of UniProt Q9Y4B6 (whole entry, looked up)": "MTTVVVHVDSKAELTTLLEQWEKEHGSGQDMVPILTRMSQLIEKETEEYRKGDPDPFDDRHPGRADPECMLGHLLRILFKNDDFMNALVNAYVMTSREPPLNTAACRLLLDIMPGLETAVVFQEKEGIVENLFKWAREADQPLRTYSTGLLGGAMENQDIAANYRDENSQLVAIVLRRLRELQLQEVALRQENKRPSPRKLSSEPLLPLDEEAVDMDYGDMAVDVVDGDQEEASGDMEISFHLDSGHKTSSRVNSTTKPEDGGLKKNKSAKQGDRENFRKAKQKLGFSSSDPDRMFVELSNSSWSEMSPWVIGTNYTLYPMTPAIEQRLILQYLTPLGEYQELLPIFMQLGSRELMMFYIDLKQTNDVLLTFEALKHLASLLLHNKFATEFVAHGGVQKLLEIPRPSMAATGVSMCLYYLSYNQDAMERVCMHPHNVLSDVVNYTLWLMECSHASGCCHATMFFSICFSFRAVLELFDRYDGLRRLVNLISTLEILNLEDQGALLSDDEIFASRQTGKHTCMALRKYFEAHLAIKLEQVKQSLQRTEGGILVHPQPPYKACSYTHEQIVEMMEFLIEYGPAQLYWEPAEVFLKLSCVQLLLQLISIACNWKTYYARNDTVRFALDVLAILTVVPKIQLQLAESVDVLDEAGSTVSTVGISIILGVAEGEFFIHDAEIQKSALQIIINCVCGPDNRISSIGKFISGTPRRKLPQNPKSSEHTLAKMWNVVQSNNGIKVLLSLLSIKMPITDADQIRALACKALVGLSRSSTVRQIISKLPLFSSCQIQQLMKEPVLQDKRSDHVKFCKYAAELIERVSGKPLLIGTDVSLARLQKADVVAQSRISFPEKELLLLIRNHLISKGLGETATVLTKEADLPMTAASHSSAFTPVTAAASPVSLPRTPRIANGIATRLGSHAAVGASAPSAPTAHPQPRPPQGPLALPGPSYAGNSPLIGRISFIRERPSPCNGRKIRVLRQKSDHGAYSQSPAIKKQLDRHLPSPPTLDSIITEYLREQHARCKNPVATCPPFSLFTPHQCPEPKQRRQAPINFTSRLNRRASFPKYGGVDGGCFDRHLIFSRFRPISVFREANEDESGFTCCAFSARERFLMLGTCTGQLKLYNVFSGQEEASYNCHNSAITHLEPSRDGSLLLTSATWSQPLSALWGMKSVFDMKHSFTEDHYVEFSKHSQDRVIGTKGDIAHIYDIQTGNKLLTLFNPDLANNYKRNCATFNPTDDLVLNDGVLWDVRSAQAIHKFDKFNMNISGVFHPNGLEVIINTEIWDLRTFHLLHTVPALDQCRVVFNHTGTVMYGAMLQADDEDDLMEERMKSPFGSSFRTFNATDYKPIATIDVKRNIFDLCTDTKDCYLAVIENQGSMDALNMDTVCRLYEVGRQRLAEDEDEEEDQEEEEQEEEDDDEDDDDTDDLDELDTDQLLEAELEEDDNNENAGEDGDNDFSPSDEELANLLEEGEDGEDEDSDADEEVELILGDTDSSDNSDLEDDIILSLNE"}
{"target": "WDR5", "setting": "67.21 °C", "SYPRO Orange fluorescence": "7000 a.u."}
{"target": "WDR5", "setting": "81.41 °C", "SYPRO Orange fluorescence": "27900 a.u."}
{"target": "WDR5", "setting": "89.01 °C", "SYPRO Orange fluorescence": "43500 a.u."}
{"target": "DCAF1", "setting": "36.4 °C", "SYPRO Orange fluorescence": "9300 a.u."}
{"target": "WDR5", "setting": "58.61 °C", "SYPRO Orange fluorescence": "11300 a.u."}
{"target": "WDR5", "setting": "56.61 °C", "SYPRO Orange fluorescence": "12800 a.u."}
{"target": "DCAF1", "setting": "26.8 °C", "SYPRO Orange fluorescence": "7710 a.u."}
{"data": "Series 2", "Compound": "CCN(CC)CC(=O)N1CCN(c2nc(NCc3nc4cc(Cl)c(Cl)cc4[nH]3)c3ncn(CC)c3n2)CC1", "action": "inhibitor", "CDK12 with cyclin K": "Cyclin-dependent kinase 12, with cyclin K (CDK12, Homo sapiens, UniProt Q9NYV4)", "CDK7": "Cyclin-dependent kinase 7 (CDK7, Homo sapiens, UniProt P50613)", "CDK13": "Cyclin-dependent kinase 13 (CDK13, Homo sapiens, UniProt Q14004)", "chain of UniProt P50613 (whole entry, looked up)": "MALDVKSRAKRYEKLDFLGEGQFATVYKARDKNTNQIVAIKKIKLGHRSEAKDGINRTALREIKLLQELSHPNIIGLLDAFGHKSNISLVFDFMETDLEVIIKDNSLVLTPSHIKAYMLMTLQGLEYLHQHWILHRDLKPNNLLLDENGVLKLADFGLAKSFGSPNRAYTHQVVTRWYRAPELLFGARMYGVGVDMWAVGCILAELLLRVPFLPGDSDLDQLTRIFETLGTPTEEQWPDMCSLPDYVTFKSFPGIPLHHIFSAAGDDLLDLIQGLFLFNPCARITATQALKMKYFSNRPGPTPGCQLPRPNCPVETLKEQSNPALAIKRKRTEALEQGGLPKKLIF", "chain of UniProt Q9NYV4 (whole entry, looked up)": "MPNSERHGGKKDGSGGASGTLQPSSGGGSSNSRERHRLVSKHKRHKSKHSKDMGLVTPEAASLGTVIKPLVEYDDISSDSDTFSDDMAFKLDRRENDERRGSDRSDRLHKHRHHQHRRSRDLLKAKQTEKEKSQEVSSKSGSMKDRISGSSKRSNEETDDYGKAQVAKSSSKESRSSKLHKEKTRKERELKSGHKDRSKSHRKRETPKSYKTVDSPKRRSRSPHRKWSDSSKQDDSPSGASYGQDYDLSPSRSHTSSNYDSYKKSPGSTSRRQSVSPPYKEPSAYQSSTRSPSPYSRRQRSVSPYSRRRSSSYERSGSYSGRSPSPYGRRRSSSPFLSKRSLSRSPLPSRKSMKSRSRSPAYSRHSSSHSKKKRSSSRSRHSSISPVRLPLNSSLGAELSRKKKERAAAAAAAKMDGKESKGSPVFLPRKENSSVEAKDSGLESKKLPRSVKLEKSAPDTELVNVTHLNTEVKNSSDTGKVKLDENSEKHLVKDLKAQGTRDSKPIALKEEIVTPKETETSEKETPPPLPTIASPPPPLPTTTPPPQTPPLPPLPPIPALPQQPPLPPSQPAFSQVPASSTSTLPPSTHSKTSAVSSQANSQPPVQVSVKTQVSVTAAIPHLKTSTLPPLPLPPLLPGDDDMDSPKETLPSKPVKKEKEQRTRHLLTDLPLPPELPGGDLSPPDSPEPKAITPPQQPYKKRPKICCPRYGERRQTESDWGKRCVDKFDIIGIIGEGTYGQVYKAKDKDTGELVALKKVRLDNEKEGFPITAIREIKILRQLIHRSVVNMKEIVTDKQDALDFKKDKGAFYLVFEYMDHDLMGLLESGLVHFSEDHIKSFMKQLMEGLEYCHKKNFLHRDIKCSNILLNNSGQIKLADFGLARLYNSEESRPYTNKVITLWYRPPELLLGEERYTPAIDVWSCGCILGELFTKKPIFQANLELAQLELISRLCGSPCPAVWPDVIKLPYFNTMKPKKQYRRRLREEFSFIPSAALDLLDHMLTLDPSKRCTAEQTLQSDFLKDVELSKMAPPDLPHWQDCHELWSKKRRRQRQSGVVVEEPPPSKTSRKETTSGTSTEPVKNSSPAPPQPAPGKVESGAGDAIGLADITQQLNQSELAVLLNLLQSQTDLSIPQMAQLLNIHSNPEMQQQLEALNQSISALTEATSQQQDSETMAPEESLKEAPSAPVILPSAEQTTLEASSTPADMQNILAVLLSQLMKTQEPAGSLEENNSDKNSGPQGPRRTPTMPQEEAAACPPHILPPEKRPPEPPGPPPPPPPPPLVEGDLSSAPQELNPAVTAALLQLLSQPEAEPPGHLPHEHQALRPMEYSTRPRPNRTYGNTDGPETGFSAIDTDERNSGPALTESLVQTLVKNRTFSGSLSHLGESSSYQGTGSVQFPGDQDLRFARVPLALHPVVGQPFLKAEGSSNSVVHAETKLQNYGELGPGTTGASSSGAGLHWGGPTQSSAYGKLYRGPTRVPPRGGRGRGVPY", "chain of UniProt Q14004 (whole entry, looked up)": "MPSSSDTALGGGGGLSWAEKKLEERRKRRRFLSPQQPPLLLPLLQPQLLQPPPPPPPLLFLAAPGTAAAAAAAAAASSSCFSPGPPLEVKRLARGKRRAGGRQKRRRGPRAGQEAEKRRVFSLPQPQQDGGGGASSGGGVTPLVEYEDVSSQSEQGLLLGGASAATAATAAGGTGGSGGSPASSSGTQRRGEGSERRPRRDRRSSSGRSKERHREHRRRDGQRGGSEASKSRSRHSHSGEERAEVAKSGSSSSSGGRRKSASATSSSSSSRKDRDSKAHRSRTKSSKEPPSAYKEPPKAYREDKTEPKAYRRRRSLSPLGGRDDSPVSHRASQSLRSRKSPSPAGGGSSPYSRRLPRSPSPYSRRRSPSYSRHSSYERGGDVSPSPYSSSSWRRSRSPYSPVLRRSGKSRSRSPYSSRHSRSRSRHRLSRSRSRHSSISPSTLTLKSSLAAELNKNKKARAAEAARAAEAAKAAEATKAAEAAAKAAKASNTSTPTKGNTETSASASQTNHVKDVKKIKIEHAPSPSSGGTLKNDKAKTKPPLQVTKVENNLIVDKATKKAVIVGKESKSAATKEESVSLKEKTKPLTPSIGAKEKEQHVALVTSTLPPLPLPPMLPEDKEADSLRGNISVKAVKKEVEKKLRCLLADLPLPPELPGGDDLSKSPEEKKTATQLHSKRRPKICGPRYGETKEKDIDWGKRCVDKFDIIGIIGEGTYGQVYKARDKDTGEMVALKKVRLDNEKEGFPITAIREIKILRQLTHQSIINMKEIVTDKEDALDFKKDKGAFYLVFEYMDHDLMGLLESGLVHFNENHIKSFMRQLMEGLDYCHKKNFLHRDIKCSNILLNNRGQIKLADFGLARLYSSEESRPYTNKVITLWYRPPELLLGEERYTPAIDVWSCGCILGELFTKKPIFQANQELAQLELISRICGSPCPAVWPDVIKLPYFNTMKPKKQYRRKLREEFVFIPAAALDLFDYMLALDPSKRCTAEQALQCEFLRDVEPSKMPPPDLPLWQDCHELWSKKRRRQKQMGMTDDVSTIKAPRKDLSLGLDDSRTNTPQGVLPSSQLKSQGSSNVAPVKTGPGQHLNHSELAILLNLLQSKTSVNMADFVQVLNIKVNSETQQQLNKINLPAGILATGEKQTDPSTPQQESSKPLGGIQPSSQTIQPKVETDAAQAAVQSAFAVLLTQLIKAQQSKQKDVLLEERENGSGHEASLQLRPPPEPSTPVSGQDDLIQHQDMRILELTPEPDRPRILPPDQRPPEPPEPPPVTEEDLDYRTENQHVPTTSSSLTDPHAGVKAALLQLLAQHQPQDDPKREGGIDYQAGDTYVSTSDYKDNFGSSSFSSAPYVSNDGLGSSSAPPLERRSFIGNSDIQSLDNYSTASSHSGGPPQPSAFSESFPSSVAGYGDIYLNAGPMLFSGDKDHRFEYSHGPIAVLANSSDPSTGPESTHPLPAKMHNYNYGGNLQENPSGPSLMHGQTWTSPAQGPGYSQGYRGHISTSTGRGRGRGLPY"}
{"target": "CDK12 with cyclin K", "test": "kinase activity, ADP-Glo", "setting": "2 µM", "inhibition": "82.6%"}
{"target": "CDK7", "test": "enzyme activity, ADP detection", "setting": "41.2 nM", "inhibition": "-4.6%"}
{"target": "CDK13", "test": "enzyme activity, ADP detection", "setting": "0.3704 µM", "inhibition": "44.1%"}
{"target": "CDK12 with cyclin K", "test": "kinase activity, ADP-Glo", "setting": "0.0082 µM", "inhibition": "2%"}
{"target": "CDK7", "test": "enzyme activity, ADP detection", "setting": "1.5 nM", "inhibition": "26.8%"}
{"target": "CDK12 with cyclin K", "test": "kinase activity, ADP-Glo", "setting": "0.0009 µM", "inhibition": "2.6%"}
{"target": "CDK13", "test": "enzyme activity, ADP detection", "setting": "41.2 nM", "inhibition": "8.2%"}
{"target": "Cyclin-dependent kinase 2 (CDK2, Homo sapiens, UniProt P24941)", "test": "enzyme activity, ADP detection", "setting": "4.6 nM", "inhibition": "-4.6%"}
{"target": "CDK7", "test": "enzyme activity, ADP detection", "setting": "1.111 µM", "inhibition": "20.3%"}
{"target": "CDK13", "test": "enzyme activity, ADP detection", "setting": "500 pM", "inhibition": "-7.8%"}
{"target": "CDK12 with cyclin K", "test": "kinase activity, ADP-Glo", "setting": "0.2222 µM", "inhibition": "43.1%"}
{"target": "CDK12 with cyclin K", "test": "kinase activity, ADP-Glo", "setting": "0.0027 µM", "inhibition": "0.8%"}
{"target": "CDK7", "test": "enzyme activity, ADP detection", "setting": "13.7 nM", "inhibition": "12.6%"}
{"data": "Series 3", "SMILES": "Cc1ncsc1-c1ccc(C(CO)NC(=O)C2CC(O)CN2C(=O)C(C(C)C)n2cc(-c3ccc(COc4c(-c5c(C)c(F)cc6[nH]ncc56)c(C5CC5)cc5c(N6CC7CC6CN7)nc(OC6CCOCC6)nc45)cc3)nn2)cc1 (stereo not drawn)", "observed": "cell growth or viability", "technique": "ATP luminescence", "time": "6 days"}
{"cell line": "PK-59", "setting": "3 µM", "viability": "2.04% and 2.77% and 1.61% and 1.5%"}
{"cell line": "ASPC1", "setting": "300 pM", "viability": "90.6% and 87% and 77.7% and 82.1%"}
{"cell line": "GP2d", "setting": "3 µM", "viability": "27.4% and 26.2% and 21.2% and 22.7%"}
{"cell line": "BXPC-3", "setting": "10 nM", "viability": "87.6% and 100% and 95% and 112%"}
{"cell line": "GP2d", "setting": "1 µM", "viability": "28.6% and 30% and 27.5% and 35%"}
{"cell line": "LCLC-97TM1", "setting": "30 nM", "viability": "106% and 104% and 91.7% and 93.1%"}
{"cell line": "BXPC-3", "setting": "3 µM", "viability": "86.2% and 86% and 120% and 76%"}
{"data": "Series 4", "species": "female CD-1 mouse", "medium": "plasma", "route": "oral", "dose": "60 mg/kg"}
{"SMILES": "Cc1ccc(O)c(C)c1-c1cnc2[nH]c(-c3cnc(N4CCC5(CC4)CC(N4CCN(c6ccc(NC7CCC(=O)NC7=O)cc6F)CC4)CO5)nc3)cc2c1C#N (stereo not drawn)", "half-life [h]": 2.6}
{"SMILES": "Cc1ccc(O)c(C)c1-c1cnc2[nH]c(-c3cnc(N4CCC(CCN5CCN(c6ccc(NC7CCC(=O)NC7=O)cc6F)CC5)CC4)nc3)cc2c1C#N (stereo not drawn)", "half-life [h]": 3.1}
{"SMILES": "Cc1ccc(O)c(C)c1-c1cnc2[nH]c(-c3cnc(N4CCC(CN5CCN(c6ccc(NC7CCC(=O)NC7=O)cc6F)CC5)CC4)nc3)cc2c1C#N (stereo not drawn)", "half-life [h]": 2.7}
{"SMILES": "Cc1ccc(O)c(C)c1-c1cnc2[nH]c(-c3cnc(N4CCC(CN5CCN(c6ccc7c(c6F)CN(C6CCC(=O)NC6=O)C7=O)CC5)CC4)nc3)cc2c1C#N (stereo not drawn)", "half-life [h]": 2.3}
{"SMILES": "Cc1ccc(O)c(C)c1-c1cnc2[nH]c(-c3cnc(N4CCC(CN5CCN(c6ccc7c(c6)C(=O)N(C6CCC(=O)NC6=O)C7=O)CC5)CC4)nc3)cc2c1C#N (stereo not drawn)", "half-life [h]": 4}
{"SMILES": "Cc1ccc(O)c(C)c1-c1cnc2[nH]c(-c3cnc(N4CCC(CN5CCN(c6cc7c(cc6F)c(N6CCC(=O)NC6=O)nn7C)CC5)CC4)nc3)cc2c1C#N", "half-life [h]": 2.4}
